Experimental data collected from several papers.
Compare with care: the assays were run in different laboratories.
ACHE: Acetylcholinesterase (ACHE, Homo sapiens, UniProt P22303)
Sequence of UniProt P22303 (whole entry, looked up): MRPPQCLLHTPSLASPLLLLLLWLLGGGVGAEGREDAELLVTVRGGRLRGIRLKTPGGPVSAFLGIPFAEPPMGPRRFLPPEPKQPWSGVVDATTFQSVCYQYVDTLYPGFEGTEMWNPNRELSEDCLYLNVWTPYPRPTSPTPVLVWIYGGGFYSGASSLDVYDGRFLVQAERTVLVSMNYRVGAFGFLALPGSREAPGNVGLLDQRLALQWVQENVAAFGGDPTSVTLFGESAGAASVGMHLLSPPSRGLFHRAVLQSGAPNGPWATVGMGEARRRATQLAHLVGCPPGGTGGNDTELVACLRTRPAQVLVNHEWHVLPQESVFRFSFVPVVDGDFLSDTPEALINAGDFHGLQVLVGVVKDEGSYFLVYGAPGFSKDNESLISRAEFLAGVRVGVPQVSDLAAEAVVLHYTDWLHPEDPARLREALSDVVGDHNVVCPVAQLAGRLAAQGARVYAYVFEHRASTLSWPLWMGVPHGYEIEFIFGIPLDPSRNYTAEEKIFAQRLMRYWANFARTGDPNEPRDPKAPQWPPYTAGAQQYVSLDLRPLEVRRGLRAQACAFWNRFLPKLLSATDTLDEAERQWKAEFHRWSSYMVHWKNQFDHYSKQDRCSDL
TNIK: TRAF2 and NCK-interacting protein kinase (TNIK, Homo sapiens, UniProt Q9UKE5)
Sequence of UniProt Q9UKE5 (whole entry, looked up): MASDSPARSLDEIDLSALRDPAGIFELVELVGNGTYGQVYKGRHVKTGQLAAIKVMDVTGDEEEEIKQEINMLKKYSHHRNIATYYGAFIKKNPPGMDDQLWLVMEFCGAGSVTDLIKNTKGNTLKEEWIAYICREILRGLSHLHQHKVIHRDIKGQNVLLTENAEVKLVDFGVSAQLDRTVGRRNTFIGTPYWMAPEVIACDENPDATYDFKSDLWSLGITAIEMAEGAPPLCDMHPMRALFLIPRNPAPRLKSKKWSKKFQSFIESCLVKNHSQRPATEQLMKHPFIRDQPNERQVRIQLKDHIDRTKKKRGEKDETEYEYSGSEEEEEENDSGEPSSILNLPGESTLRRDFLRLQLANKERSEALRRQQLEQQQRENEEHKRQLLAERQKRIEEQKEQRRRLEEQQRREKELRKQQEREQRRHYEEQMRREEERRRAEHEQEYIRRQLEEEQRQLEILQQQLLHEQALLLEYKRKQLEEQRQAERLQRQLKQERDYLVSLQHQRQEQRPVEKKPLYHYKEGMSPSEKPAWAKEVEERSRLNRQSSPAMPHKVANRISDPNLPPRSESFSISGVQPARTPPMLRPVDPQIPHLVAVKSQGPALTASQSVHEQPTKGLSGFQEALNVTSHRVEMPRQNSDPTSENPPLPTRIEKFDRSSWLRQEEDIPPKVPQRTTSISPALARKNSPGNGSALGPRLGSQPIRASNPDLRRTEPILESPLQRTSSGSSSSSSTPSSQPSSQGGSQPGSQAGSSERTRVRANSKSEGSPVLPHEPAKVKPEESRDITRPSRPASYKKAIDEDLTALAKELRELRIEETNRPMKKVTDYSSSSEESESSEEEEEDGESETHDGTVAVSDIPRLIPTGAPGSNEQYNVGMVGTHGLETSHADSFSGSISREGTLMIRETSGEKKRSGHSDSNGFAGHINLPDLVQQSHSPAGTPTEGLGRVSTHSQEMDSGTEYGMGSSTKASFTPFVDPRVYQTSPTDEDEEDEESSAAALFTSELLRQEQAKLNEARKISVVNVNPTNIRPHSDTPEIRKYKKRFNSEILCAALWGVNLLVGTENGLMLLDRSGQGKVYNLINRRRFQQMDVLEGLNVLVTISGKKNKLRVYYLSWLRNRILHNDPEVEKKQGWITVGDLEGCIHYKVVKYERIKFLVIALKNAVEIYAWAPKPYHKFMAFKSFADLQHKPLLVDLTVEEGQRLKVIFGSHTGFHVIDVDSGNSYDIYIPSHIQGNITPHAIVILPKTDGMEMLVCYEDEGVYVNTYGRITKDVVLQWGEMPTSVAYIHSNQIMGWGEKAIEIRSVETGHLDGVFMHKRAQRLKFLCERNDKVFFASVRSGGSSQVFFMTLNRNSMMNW
Sequence of UniProt Q9NUJ1 (whole entry, looked up): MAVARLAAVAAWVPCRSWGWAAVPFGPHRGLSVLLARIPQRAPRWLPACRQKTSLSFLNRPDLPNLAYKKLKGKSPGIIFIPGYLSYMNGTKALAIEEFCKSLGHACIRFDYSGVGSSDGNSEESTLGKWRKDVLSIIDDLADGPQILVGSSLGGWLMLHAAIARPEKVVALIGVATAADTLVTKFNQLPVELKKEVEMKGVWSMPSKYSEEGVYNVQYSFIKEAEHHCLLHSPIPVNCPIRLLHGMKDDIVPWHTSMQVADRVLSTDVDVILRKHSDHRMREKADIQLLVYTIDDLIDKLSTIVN
Sequence of UniProt Q92993 (whole entry, looked up): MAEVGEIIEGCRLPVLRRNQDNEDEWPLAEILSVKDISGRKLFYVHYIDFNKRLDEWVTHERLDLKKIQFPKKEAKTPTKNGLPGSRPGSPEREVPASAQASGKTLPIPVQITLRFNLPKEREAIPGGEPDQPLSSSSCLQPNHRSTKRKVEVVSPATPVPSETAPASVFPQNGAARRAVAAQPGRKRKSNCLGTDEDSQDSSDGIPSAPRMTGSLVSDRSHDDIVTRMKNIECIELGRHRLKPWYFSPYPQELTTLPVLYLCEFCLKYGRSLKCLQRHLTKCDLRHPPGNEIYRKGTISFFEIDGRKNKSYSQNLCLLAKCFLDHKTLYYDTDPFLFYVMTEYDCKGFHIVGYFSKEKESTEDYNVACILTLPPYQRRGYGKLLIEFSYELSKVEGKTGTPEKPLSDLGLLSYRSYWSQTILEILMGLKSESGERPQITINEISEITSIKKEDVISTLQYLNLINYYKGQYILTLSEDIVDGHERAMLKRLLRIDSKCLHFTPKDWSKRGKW
Sequence of UniProt O00574 (whole entry, looked up): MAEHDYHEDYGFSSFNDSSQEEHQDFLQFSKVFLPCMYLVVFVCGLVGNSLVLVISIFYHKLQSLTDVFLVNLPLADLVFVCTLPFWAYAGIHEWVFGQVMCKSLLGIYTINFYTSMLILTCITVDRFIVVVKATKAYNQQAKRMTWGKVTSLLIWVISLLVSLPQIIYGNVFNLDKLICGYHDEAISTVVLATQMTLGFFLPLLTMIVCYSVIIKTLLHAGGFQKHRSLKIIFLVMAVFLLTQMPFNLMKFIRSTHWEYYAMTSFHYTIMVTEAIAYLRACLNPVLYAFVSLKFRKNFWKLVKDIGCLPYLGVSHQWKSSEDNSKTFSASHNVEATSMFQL
Sequence of UniProt Q8TDU6 (whole entry, looked up): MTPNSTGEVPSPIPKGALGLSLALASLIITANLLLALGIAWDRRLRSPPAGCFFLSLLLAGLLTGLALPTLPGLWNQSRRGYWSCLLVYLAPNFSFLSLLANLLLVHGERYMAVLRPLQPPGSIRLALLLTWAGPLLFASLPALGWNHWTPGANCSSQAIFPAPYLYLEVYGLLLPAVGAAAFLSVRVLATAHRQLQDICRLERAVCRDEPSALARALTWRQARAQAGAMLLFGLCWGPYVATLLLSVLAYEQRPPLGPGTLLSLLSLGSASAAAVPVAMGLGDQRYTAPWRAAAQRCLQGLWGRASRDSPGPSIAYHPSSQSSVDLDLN
Sequence of UniProt P80457 (whole entry, looked up): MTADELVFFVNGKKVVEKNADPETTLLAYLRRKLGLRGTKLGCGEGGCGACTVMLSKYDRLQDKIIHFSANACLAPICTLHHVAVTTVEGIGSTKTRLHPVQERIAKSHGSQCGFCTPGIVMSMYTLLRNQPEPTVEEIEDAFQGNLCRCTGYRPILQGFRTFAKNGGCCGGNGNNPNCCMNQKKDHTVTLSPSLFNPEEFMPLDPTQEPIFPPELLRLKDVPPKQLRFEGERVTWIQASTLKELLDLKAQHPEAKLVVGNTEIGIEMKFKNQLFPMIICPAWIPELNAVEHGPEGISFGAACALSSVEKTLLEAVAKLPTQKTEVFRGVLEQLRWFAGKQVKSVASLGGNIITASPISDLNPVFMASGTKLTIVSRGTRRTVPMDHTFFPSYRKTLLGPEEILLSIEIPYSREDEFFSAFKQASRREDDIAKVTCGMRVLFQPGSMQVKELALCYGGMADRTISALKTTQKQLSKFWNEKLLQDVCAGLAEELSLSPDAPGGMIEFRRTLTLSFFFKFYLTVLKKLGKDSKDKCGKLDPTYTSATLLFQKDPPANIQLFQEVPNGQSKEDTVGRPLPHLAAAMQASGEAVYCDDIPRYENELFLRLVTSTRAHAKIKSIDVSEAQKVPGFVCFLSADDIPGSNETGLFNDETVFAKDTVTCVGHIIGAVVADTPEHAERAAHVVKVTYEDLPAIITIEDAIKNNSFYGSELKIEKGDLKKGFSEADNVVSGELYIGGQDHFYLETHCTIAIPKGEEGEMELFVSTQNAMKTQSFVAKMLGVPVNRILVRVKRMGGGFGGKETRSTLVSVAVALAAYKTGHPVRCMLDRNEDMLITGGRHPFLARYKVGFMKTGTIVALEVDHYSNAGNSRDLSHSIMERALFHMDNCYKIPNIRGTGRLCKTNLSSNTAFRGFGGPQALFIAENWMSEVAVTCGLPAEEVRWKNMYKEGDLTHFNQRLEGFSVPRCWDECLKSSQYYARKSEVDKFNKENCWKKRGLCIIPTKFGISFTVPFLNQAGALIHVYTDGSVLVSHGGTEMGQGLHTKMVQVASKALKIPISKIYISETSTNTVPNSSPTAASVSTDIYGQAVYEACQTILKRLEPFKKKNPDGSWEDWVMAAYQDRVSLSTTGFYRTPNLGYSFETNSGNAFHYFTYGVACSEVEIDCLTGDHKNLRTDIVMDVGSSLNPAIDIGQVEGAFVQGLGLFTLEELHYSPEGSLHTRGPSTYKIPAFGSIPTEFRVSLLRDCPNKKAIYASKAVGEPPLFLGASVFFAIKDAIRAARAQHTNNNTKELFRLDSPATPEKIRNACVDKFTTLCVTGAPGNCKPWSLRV

Oc1ccc2c3c1O[C@H]1[C@@H](O)CC[C@@]4(O)[C@@H](C2)N(CC2CCC2)CC[C@]314
log2 fold change (GPBAR1 (Homo sapiens, UniProt Q8TDU6); receptor activation, TANGO luminescence; concentration not given, unconfirmed screen; relative to: vehicle control): -0.096

C[C@H]1CN(c2n[nH]c3nc(N[C@H]4CC[C@H](NS(=O)(=O)CCC(F)(F)F)CC4)ncc23)CCO1
remaining binding (SWI/SNF-related matrix-associated actin-dependent regulator of chromatin subfamily E member 1 (Homo sapiens, UniProt Q969G3); Kinobeads competition, item: SMARCE1; 0.8 µM, unit not given; relative to: vehicle): 1.41

Cc1c(NC(=O)c2cc3c(s2)CCCC3)cccc1-c1cn(C)c(=O)c(Nc2ccc(C3C(=O)N(C)CCN3C)cc2)n1 (racemic)
IC50 (ACHE; enzyme activity, inhibitor): inactive

O=S(=O)([O-])C(F)(F)C(F)(F)C(F)(F)C(F)(F)C(F)(F)C(F)(F)C(F)(F)C(F)(F)F.[K+]
mRNA level (RT-qPCR, item: Pparg; mouse, ethanol-fed, liver; dose not given; relative to: efavirenz): increased

COc1c(CCC[P+](c2ccccc2)(c2ccccc2)c2ccccc2)cc2c(c1OC)OCO2.[I-]
TGI (Hs-578T; SRB): -4.87 log M

CC[C@H](C)[C@H](NC(=O)CNC(=O)[C@@H](N)CCCCN)C(=O)N[C@@H](CC(C)C)C(=O)N[C@@H](CCCCN)C(=O)N[C@@H](CCCNC(=N)N)C(=O)N[C@@H](CCC(=O)O)C(=O)N[C@@H](CCCCN)C(=O)N[C@@H](CCCNC(=N)N)C(=O)N[C@@H](CC(C)C)C(=O)N[C@@H](CCCNC(=N)N)C(=O)N[C@@H](CCCNC(=N)N)C(=O)N[C@@H](CCCCN)C(=O)N[C@@H](CC(N)=O)C(=O)N[C@H](C(=O)N[C@@H](Cc1c[nH]cn1)C(=O)N[C@@H](Cc1c[nH]c2ccccc12)C(=O)N1CCC[C@H]1C(=O)N[C@@H](CCC(=O)O)C(=O)N[C@@H](CCC(=O)O)C(=O)NCC(=O)N[C@@H](CCCCN)C(=O)N[C@@H](CC(C)C)C(=O)N[C@@H](CCCNC(=N)N)C(=O)N[C@@H](CCC(=O)O)C(=O)N[C@@H](Cc1ccc(O)cc1)C(=O)N[C@@H](Cc1ccccc1)C(=O)N[C@@H](Cc1ccc(O)cc1)C(=O)N[C@@H](Cc1ccccc1)C(=O)N[C@@H](CCC(=O)O)C(=O)N[C@@H](CC(C)C)C(=O)N[C@@H](CC(=O)O)C(=O)N[C@@H](CCC(=O)O)C(=O)N[C@@H](C)C(=O)N[C@@H](CCC(=O)O)C(=O)N[C@@H](CCCNC(=N)N)C(=O)N[C@H](C(=O)N[C@@H](CC(N)=O)C(=O)N[C@H](C(=O)O)C(C)C)C(C)C)C(C)C
log2 fold change (HeLa and HEK-293T cells; phosphatase bead binding, competitive inhibitor, PIB pulldown iBAQ LC-MS/MS, item: MOB4; concentration not given; relative to: untreated control): -0.13

[2H]c1c([2H])c([C@]2([2H])CCCN2C(=O)C(C)(C)Oc2ccc3cn[nH]c3c2)c([2H])c([2H])c1C([2H])([2H])[2H]
remaining binding (TNIK; KINOMEscan; 1 µM; relative to: DMSO control): 86%

CC[C@H](C)[C@H](NC(=O)[C@H](Cc1ccccc1)NC(=O)[C@H](CCC(=O)O)NC(=O)[C@H](CCCNC(=N)N)NC(=O)[C@H](C)NC(=O)[C@H](C)NC(=O)[C@H](CCC(N)=O)NC(=O)[C@H](CCC(=O)O)NC(=O)[C@H](CCC(=O)O)NC(=O)[C@H](CC(C)C)NC(=O)[C@H](Cc1ccc(O)cc1)NC(=O)[C@H](CO)NC(=O)[C@H](CO)NC(=O)[C@@H](NC(=O)[C@H](CC(=O)O)NC(=O)[C@H](CO)NC(=O)[C@@H](NC(=O)[C@H](Cc1ccccc1)NC(=O)[C@@H](NC(=O)CNC(=O)[C@H](CCC(=O)O)NC(=O)[C@H](C)NC(=O)CCc1c[nH]cn1)[C@@H](C)O)[C@@H](C)O)C(C)C)C(=O)N[C@@H](C)C(=O)N[C@@H](Cc1c[nH]c2ccccc12)C(=O)N[C@@H](CC(C)C)C(=O)N[C@H](C(=O)N[C@@H](CCCNC(=N)N)C(=O)NCC(=O)N[C@@H](CCCNC(=N)N)C(=O)N[C@@H](CCCCNC(=O)COCCOCCNC(=O)COCCOCCNC(=O)CC[C@H](NC(=O)CCCCCCCCCCCCCCCCC(=O)O)C(=O)O)C(=O)NCC(=O)NCC(=O)N[C@@H](CO)C(=O)N[C@@H](CCCCNc1c(NCCCCCN(O)C(=O)CCC(=O)NCCCCCN(O)C(=O)CCC(=O)NCCCCCN(O)C(C)=O)c(=O)c1=O)C(=O)O)C(C)C [zirconium-89 labelled]
tissue uptake (gamma counting; rat, stomach-duodenum content; subcutaneous, 3 nmol/kg, 168 h): 0.04 %ID/g

O=C(c1ccc(Cl)cc1)N1CCN2C(=O)N(OC(=O)N3CCOc4ccccc43)C(=O)C2C1 (stereo not drawn)
median protein ratio (Palmitoyl-protein thioesterase ABHD10, mitochondrial (Homo sapiens, UniProt Q9NUJ1); MS-based ABPP; SW-620 conditioned medium; 10 µM, 1 h, 37 °C; relative to: compound over DMSO, lower = more inhibition): 1.17

CCOc1ccccc1C(=O)Nc1ccc(Cl)c(C(F)(F)F)c1
SPR binding response (KAT5 (Homo sapiens, UniProt Q92993); SPR; 0.63 µM; higher = more binding): 0.133 RU

CCOC(=O)C(=O)c1csc(NC=O)n1
IC50 (ACHE; enzyme activity, inhibitor): inactive

COc1ccc(N2CCN(C(CNC(=O)Oc3ccccc3)c3cccnc3)CC2)cc1 (stereo not drawn)
inhibition (Trypanosoma cruzi; reporter translation, Renilla luciferase mRNA translation; cell-free extract; 40 µM; relative to: DMSO): -3.3%

COc1cc2c(Oc3ccc4[nH]c(C)cc4c3F)ccnc2cc1OCC1(N)CC1
grade 3 QTc prolongation (paediatric refractory sarcoma patients; 10 mg): 0%

CC[C@H](C)[C@@H]1NC(=O)[C@@H]2CCCN2C(=O)[C@H](CC(C)C)NC(=O)[C@H](CC(C)C)NC(=O)CNC(=O)[C@@H](NC(=O)[C@@H](NC(=O)[C@H](CC(=O)O)NC(=O)CNC(=O)[C@@H](NC(=O)[C@H](C)NC(=O)CNC(=O)[C@H](CCCCN)NC(=O)[C@H](CC(C)C)NC(=O)[C@H](CC(C)C)NC(=O)[C@H](CCCCN)NC(=O)CNC(=O)[C@@H](NC(=O)[C@@H](N)CC(C)C)C(C)C)C(C)C)C(C)C)CSSC[C@@H](C(=O)O)NC1=O
log2 fold change (RNA-seq, item: Tpm3-rs7 mRNA; mouse traumatic brain injury, frontal cortex and hippocampus; dose not given; relative to: TBI plus compound vs TBI): 1.54

C[C@]1(CO)Cc2ncn(-c3ccc(C#N)c(Cl)c3)c2C(=O)O1
subjects with drug-related dizziness (human, Chinese; 20 mg single dose): 0%

CN1CCN(c2cc(-c3ccncc3)c(-c3ccc4ccccc4c3)nn2)CC1
activation (CXCR6 (Homo sapiens, UniProt O00574); agonist, FLIPR; 12.5 µM): -0.9%

CCOc1ccc(CNCCc2ccc3c(c2)OCO3)cc1
inhibition (Trypanosoma cruzi; reporter translation, Renilla luciferase mRNA translation; cell-free extract; 40 µM; relative to: DMSO): -1%

COc1ccc(N2C(=O)N(c3c(C)cccc3Cl)Cc3cnc(Nc4ccc(C5CCN(C)CC5)cc4OC)nc32)nc1
inhibition (TNIK; kinase activity; 0.5 µM): 24%

CC1(N2CCC(n3c([C@@H]4CCCNC4)nc4ccccc43)CC2)CCCCCCC1
IC50 (ACHE; enzyme activity, inhibitor): inactive

COc1cc(Nc2ncc(F)c(Nc3ccc4c(n3)NC(=O)C(C)(C)O4)n2)cc(OC)c1OC
IC50 (XDH (Bos taurus, UniProt P80457)): > 10 µM

CCCCCCC[N+](CC)(CC)CCCCc1ccc(Cl)cc1.Cc1ccc(S(=O)(=O)[O-])cc1
IC50 (ACHE; enzyme activity, inhibitor): inactive

CO[C@H]1C[C@@H]2CC[C@@H](C)[C@@](O)(O2)C(=O)C(=O)N2CCCC[C@H]2C(=O)O[C@H]([C@H](C)C[C@@H]2CC[C@@H](OC(=O)NCCOCCOCCOCCOCCOCCOCCOCCOCCC(=O)N3CCc4cc(Cn5nc(-c6ccc7oc(N)nc7c6)c6c(N)ncnc65)ccc4C3)[C@H](OC)C2)C[C@@H](O)[C@H](C)/C=C(\C)[C@@H](O)[C@@H](OC)C(=O)[C@H](C)C[C@H](C)/C=C/C=C/C=C/1C
mucositis incidence (patients with advanced solid tumours; intravenous, 12 mg weekly, any grade): 58.3%

COc1ccc2c(c1)CN(C(=O)CCN1CCC(Cc3ccccc3)CC1)CCS2.COc1ccc2c(c1)CN(C(=O)CCN1CCC(Cc3ccccc3)CC1)CCS2.O=C(O)/C=C/C(=O)O
IC50 (ACHE; enzyme activity, inhibitor): inactive

COc1cc(CCC[P+](c2ccccc2)(c2ccccc2)c2ccccc2)c(OC)c2c1OCO2.[I-]
TGI (MCF7; SRB): -4.89 log M
